Measured values of several laboratories.
Parts stem from different laboratories: compare values within a part only. “And” joins repeats or separate records; there may be more than shown.
Sequence of UniProt P54764 (whole entry, looked up): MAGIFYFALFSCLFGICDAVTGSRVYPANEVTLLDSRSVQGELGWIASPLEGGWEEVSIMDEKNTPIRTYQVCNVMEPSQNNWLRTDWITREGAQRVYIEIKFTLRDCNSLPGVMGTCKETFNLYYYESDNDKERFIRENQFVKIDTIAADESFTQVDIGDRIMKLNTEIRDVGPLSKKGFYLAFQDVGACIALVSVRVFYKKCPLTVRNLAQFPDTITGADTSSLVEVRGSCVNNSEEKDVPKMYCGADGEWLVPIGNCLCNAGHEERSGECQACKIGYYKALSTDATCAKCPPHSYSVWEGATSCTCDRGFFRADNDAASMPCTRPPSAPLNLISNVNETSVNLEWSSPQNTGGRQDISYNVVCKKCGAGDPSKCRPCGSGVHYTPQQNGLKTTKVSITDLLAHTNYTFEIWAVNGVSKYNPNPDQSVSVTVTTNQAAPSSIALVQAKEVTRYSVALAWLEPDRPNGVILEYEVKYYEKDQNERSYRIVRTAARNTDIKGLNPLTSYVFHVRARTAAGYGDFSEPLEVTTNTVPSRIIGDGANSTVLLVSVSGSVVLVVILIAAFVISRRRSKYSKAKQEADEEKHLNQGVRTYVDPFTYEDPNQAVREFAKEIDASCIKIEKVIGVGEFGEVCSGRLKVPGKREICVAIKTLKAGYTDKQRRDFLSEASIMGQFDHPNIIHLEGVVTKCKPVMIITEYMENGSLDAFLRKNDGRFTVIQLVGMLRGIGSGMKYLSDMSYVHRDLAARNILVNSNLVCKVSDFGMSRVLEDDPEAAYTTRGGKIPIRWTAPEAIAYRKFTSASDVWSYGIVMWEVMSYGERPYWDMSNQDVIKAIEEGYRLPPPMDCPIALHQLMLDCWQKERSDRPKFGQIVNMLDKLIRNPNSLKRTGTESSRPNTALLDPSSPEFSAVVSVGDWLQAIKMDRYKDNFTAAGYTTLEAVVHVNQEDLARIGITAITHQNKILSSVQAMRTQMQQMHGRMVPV
Sequence of UniProt O75582 (whole entry, looked up): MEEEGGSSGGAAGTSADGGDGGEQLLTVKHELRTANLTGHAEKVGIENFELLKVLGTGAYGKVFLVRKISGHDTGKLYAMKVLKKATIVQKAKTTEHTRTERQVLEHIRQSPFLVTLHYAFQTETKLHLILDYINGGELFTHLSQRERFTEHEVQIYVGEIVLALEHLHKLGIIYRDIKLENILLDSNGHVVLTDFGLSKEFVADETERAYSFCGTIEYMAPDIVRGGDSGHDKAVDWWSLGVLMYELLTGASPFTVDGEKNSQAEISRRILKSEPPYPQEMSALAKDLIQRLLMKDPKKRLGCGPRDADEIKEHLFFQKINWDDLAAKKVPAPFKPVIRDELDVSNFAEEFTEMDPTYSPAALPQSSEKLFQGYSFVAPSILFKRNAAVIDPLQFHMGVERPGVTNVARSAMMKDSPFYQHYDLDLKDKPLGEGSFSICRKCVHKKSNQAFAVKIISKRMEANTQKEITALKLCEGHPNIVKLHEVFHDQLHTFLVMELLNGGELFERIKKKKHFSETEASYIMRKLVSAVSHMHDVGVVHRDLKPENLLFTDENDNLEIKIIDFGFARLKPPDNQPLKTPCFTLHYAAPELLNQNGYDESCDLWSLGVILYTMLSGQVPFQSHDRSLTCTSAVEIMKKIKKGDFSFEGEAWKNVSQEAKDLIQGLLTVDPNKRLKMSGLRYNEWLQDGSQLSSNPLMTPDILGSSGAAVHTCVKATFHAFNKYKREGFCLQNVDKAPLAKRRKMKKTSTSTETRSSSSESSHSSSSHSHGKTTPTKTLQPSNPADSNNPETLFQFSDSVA
Sequence of UniProt Q00534 (whole entry, looked up): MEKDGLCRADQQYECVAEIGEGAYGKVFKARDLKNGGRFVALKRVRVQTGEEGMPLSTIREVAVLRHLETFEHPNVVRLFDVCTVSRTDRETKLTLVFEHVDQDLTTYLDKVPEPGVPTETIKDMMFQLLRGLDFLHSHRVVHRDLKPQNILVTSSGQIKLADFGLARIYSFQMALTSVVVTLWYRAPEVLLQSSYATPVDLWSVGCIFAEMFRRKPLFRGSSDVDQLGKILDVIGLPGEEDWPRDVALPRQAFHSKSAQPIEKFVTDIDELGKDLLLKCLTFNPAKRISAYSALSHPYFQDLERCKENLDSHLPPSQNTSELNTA

Sample 1
Target: Histamine H4 receptor (HRH4, Homo sapiens, UniProt Q9H3N8)
Sequence of UniProt Q9H3N8 (whole entry, looked up): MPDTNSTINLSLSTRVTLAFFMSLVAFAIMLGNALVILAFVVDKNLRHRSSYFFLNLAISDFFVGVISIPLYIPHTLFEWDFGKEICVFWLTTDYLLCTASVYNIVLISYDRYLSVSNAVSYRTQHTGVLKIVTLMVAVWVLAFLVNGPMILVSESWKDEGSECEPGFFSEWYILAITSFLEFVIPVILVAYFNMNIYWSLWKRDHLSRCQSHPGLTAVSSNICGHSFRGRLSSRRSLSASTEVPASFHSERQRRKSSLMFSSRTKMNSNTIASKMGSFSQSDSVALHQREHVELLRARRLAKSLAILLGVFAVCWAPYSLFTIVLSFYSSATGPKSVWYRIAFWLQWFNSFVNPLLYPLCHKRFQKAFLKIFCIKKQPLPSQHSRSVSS
Read-out: ligand displacement
Concentration: 10 µM
Measurement: inhibition
COc1cc(N[C@@H]2CCCC[C@]2(O)C(F)(F)F)ccc1F: -17.9%
CCc1ccccc1C(=O)Nc1n[nH]c2c(C)c(F)c(C3C(C#N)=C(C)N(C)C(C)=C3C#N)cc12: -10.8%
CN1CCN(c2ccnc(NCCc3ccccc3)n2)CC1: 82.8%
Cc1cc(Nc2nccc(C)n2)cc(-c2cnc([C@@]3(O)CC[C@H](C(=O)O)C(C)(C)C3)s2)c1: 7.61%
CCC(=NO)C(C)=Cc1ccc(F)c(C)c1: 10.8%
N#CC1(c2ccccn2)CCN(Cc2cc(C(=O)N3CCCC3)c(=O)n3ccccc23)CC1: -13.5%
CN1CCN(c2cnc3c(C4CCN(C(=O)c5ccc(OC(F)(F)F)cc5N)CC4)ncnc3c2)CC1: -1.34%
CCC(F)(F)c1cc(N2CCC(S(C)(=O)=O)CC2)nc2sc(C(N)=O)c(N)c12: -1.66%
Cc1ncc(-c2cc(Cl)ccc2F)cc1-n1c(=O)n(CC(N)=O)c2ccccc21: -20.1%
CC(=O)Nc1ncc(CN2CCC[C@H](Cc3cc(C)nc(C)c3)C2)s1: -44.6%
Cn1nc(C(=O)NCc2ccc(C(=O)O)cc2)cc1-c1ccc2[nH]ccc2c1: -6.14%
c1ccc(C2CCN(c3cnc4c(N5CCOCC5)nccn34)CC2)cc1: -19%
Cc1noc([C@H]2C[C@@H](c3ccc(C(F)(F)F)cc3)CN(C(=O)N3CCS(=O)(=O)C3)C2)n1: -2.74%
Nc1cnc(N2CCc3cc(S(=O)(=O)Nc4c(F)cc(Cl)cc4F)cc(N4CCCC4=O)c32)nc1: -0.37%
Nc1nc(NCc2ccccc2)nc(-c2cccc(CO)c2)n1: 10.8%
C[C@@H]1CN(c2cc(-c3n[nH]c4ccc(OC5(C)CC5)cc34)ncn2)C[C@H](C)O1: -19.8%
O=C(Nc1ccc(Oc2ccc(F)cc2)cc1)N1CCc2ncccc2[C@H]1c1ccc(F)cc1: 7.56%
CO[C@H]1CC[C@H](CNc2ccc(S(=O)(=O)NC(=O)c3ccc(N4CCN(CC5=C(c6ccc(Cl)cc6)CC(C)(C)CC5)CC4)cc3Oc3cnc4[nH]ccc4c3)cc2[N+](=O)[O-])CC1: 4.94%
O=C1NC(c2ccccn2)Sc2ccccc21 (centres unmarked): 1.89%
C[C@H](c1ccc(F)cc1)N(Cc1cccc(C(=O)O)c1)C(=O)c1cnc2ccccc2c1: -19.2%
COc1ccc2cc(OCC3(C(=O)O)CN(C(=O)c4ccc(F)cc4)C3)ccc2c1: -17.7%
CN1CCN(C(=O)C(C)(C)c2ccc(C(=O)Nc3cn4cc(-c5cc(C(C)(C)C)cc(C(C)(C)C)c5)ccc4n3)cc2)CC1: 31.9%
CC1=C(C#N)C(c2ccc3[nH]nc(C)c3c2)C(C#N)=C(C)N1: -11.3%
NS(=O)(=O)c1cc(NC(=O)Cc2ccccc2)ccc1Oc1cccc(Cl)c1: -3.13%
CNC(=O)Nc1ccc2c(c1)CC[C@]21OC(=O)N(CC(=O)N(Cc2ccc(F)cc2)[C@@H](C)C(F)(F)F)C1=O: 10.1%

Sample 2
Target: DNA polymerase theta, ATPase domain (POLQ, Homo sapiens, UniProt O75417)
Sequence of UniProt O75417 (whole entry, unmodified, looked up): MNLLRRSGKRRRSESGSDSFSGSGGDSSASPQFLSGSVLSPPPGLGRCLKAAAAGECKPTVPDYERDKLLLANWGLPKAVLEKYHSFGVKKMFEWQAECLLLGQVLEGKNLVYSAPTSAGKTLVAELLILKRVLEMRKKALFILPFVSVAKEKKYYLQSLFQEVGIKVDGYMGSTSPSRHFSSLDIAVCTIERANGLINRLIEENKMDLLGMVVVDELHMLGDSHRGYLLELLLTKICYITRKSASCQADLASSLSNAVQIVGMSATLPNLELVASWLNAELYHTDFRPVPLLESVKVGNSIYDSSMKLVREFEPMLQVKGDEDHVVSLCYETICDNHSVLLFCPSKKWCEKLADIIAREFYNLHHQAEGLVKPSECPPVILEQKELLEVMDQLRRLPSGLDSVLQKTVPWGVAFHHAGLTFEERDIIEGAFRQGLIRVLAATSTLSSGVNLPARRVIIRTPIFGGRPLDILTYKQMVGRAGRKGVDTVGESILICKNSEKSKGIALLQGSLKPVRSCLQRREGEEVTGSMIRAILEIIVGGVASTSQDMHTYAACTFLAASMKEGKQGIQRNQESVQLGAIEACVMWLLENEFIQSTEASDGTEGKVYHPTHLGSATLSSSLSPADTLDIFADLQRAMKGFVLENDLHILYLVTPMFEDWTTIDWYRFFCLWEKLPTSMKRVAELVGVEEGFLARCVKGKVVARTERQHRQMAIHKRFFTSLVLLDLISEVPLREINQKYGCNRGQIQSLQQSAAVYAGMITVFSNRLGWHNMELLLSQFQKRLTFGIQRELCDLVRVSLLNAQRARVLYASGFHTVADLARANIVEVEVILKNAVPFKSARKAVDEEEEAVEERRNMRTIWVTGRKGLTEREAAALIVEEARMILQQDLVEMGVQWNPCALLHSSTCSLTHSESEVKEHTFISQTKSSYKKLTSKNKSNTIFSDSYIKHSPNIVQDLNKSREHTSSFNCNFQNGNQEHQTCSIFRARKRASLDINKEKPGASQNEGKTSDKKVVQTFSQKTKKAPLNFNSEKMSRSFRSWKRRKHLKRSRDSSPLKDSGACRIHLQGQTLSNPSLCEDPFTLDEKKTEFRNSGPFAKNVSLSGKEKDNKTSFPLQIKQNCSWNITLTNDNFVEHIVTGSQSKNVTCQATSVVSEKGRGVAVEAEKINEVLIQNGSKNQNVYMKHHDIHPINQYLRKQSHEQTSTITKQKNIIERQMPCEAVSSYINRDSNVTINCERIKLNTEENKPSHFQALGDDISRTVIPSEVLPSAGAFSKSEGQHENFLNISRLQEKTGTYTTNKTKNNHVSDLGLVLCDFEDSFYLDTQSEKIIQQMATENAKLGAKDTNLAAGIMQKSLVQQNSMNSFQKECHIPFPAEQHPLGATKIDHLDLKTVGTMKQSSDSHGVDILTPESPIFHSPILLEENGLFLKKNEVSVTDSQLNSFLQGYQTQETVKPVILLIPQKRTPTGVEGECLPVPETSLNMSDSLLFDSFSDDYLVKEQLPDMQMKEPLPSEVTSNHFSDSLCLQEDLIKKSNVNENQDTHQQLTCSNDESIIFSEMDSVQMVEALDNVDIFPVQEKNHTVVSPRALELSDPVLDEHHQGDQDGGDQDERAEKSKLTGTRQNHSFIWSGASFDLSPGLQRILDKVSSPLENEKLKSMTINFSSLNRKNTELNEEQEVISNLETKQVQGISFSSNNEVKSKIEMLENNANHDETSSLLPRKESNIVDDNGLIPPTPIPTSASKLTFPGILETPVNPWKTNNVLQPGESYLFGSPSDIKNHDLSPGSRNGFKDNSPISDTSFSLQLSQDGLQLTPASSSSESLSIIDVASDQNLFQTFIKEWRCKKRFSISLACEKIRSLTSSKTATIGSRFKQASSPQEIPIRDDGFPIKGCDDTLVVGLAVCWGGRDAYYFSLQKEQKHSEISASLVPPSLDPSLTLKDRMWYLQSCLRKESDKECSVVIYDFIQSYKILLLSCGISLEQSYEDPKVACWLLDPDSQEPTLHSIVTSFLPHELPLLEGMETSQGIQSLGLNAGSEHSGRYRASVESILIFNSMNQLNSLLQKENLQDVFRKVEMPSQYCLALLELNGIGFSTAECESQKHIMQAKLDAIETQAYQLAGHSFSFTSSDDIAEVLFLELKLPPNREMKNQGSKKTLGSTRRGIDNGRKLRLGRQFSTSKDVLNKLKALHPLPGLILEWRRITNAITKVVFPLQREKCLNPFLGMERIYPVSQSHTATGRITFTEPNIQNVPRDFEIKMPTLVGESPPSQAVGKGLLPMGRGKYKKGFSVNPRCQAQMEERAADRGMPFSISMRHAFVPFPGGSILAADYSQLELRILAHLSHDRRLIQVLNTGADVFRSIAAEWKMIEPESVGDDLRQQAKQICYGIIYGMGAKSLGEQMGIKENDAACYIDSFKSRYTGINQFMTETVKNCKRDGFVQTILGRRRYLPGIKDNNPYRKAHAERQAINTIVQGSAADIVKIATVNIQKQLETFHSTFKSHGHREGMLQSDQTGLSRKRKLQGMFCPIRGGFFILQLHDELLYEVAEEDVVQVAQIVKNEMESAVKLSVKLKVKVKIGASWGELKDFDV
Read-out: enzyme activity
Action: inhibitor
Concentration: 77 µM
Relative to: untreated
Measurement: remaining activity
CC1(C)S[C@@H]2[C@H](NC(=O)Cc3ccccc3)C(=O)N2[C@H]1C(=O)O: 89.4% and 104%
CC(C)(C)C(=O)OCOC(=O)[C@@H]1N2C(=O)[C@@H](/N=C/N3CCCCCC3)[C@H]2SC1(C)C: 99.7%
O=C(O)c1ccccc1OP(=O)(O)O: 110%
COc1ccc(NS(=O)(=O)c2sc3ccc(Cl)cc3c2C)cc1N1CCNCC1: 102%
S=C(S)O[C@@H]1C[C@@H]2C[C@@H]1[C@H]1CCC[C@@H]21: 96.2%
OCc1ccc(-c2nn(Cc3ccccc3)c3ccccc23)o1: 101%

Sample 3
Cell line: HaCaT
Concentration: 100 µM
Time: 60 h
Measurement: viability
CC1=C(C(=O)O)N2C(=O)[C@@H](NC(=O)[C@H](N)c3ccc(O)cc3)[C@H]2SC1: 170%
CN1CC(=O)N2[C@H](c3ccc4c(c3)OCO4)c3[nH]c4ccccc4c3C[C@@H]2C1=O: 158%
CCCCC1=NC2(CCCC2)C(=O)N1Cc1ccc(-c2ccccc2-c2nnn[nH]2)cc1: 108%
CC(=O)N1CCN(c2ccc(OC[C@@H]3CO[C@@](Cn4ccnc4)(c4ccc(Cl)cc4Cl)O3)cc2)CC1 (racemic): 17.4%
NC(=O)N1c2ccccc2C=Cc2ccccc21: 130%
NC(N)=Nc1nc(CSCCC(N)=NS(N)(=O)=O)cs1: 144%
CC(=O)OCC(=O)[C@@]1(O)CC[C@H]2[C@@H]3CCC4=CC(=O)CC[C@]4(C)[C@H]3C(=O)C[C@@]21C: 129%
C1N2CN3CN1CN(C2)C3: 142%
CCCC(=O)OCOC(=O)C1=C(C)NC(C)=C(C(=O)OC)C1c1cccc(Cl)c1Cl (centres unmarked): 27.3%
NC[C@H]1O[C@H](O[C@H]2[C@H](O[C@@H]3O[C@H](CO)[C@@H](O)[C@H]3O)[C@@H](O)[C@H](N)C[C@@H]2N)[C@H](N)[C@@H](O)[C@@H]1O: 140%
Nc1c(CC(=O)O)cccc1C(=O)c1ccc(Br)cc1: 139%
O=C(c1ccc(F)c(F)c1Nc1ccc(I)cc1F)N1CC(O)([C@@H]2CCCCN2)C1: 14.9%

Sample 4
Structure (SMILES): Cc1ccc(S(=O)(=O)/C=C/C#N)cc1
Read-out: enzyme activity
Action: inhibitor
Concentration: 0.5 µM
Relative to: control
Measurement: remaining activity
3-phosphoinositide-dependent protein kinase 1 (PDPK1, Homo sapiens, UniProt O15530): 102%
Homeodomain-interacting protein kinase 2 (HIPK2, Homo sapiens, UniProt Q9H2X6): 83.9%
Cyclin-dependent kinase 4, with cyclin D3 (CDK4, Homo sapiens, UniProt P11802): 100%
Testis-specific serine/threonine-protein kinase 2 (TSSK2, Homo sapiens, UniProt Q96PF2): 103%
MAP kinase-activated protein kinase 3 (MAPKAPK3, Homo sapiens, UniProt Q16644): 97.8%
Homeodomain-interacting protein kinase 4 (HIPK4, Homo sapiens, UniProt Q8NE63): 108%
Ribosomal protein S6 kinase alpha-5 (RPS6KA5, Homo sapiens, UniProt O75582): 109%
Dual specificity tyrosine-phosphorylation-regulated kinase 3 (DYRK3, Homo sapiens, UniProt O43781): 101%
Phosphorylase b kinase gamma catalytic chain, skeletal muscle/heart isoform (PHKG1, Homo sapiens, UniProt Q16816): 95.8%
Tyrosine-protein kinase Blk (BLK, Homo sapiens, UniProt P51451): 103%
Tyrosine-protein kinase Srms (SRMS, Homo sapiens, UniProt Q9H3Y6): 98.8%
Ephrin type-B receptor 4 (EPHB4, Homo sapiens, UniProt P54760): 102%
Serine/threonine-protein kinase WNK3 (WNK3, Homo sapiens, UniProt Q9BYP7): 110%
Ephrin type-B receptor 1 (EPHB1, Homo sapiens, UniProt P54762): 100%
Ephrin type-A receptor 4 (EPHA4, Homo sapiens, UniProt P54764): 86.1%
Serine/threonine-protein kinase 16 (STK16, Homo sapiens, UniProt O75716): 88.3%
Mitogen-activated protein kinase kinase kinase kinase 4 (MAP4K4, Homo sapiens, UniProt O95819): 106%
Serine/threonine-protein kinase 17A (STK17A, Homo sapiens, UniProt Q9UEE5): 97.8%
Cyclin-dependent kinase 1, with cyclin B (CDK1, Homo sapiens, UniProt P06493): 92.3%
Calcium/calmodulin-dependent protein kinase type II subunit beta (CAMK2B, Homo sapiens, UniProt Q13554): 106%
Cyclin-dependent kinase 6, with cyclin D3 (CDK6, Homo sapiens, UniProt Q00534): 104%
Ribosomal protein S6 kinase alpha-6 (RPS6KA6, Homo sapiens, UniProt Q9UK32): 95.4%
